Experimental data gathered from unrelated publications.
Protocols differ between the studies behind these lines.
Htr2a: 5-hydroxytryptamine receptor 2A (Htr2a, Mus musculus, UniProt P35363)
Chain of UniProt P35363 (whole entry, looked up): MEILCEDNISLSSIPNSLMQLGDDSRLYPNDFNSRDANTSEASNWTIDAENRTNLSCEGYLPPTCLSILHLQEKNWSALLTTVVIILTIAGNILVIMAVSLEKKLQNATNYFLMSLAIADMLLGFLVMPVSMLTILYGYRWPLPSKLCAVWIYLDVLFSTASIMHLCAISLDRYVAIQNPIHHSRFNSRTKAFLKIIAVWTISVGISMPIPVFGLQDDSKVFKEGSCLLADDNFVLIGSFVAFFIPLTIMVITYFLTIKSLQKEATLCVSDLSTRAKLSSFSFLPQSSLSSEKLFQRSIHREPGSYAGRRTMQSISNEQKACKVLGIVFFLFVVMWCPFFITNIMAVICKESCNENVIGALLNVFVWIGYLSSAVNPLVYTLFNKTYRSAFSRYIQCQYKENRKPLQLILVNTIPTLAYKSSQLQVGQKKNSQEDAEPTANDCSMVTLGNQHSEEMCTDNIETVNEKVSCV
Htr2c: 5-hydroxytryptamine receptor 2C (Htr2c, Mus musculus, UniProt P34968)
Chain of UniProt P34968 (whole entry, looked up): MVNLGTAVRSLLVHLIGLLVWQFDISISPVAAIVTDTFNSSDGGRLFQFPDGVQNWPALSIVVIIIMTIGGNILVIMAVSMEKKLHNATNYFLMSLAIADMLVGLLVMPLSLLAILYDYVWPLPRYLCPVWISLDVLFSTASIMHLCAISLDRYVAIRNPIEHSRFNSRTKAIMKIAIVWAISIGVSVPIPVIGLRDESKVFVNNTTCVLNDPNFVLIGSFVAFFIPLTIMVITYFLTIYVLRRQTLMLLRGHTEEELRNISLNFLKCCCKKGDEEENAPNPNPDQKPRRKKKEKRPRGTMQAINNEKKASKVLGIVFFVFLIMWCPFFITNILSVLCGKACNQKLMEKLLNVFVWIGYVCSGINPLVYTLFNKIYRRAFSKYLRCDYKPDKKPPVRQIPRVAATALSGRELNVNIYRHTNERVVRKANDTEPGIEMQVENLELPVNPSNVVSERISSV
tmk: Thymidylate kinase (tmk, Mycobacterium tuberculosis, UniProt P9WKE1)
Chain of UniProt P9WKE1 (whole entry, looked up): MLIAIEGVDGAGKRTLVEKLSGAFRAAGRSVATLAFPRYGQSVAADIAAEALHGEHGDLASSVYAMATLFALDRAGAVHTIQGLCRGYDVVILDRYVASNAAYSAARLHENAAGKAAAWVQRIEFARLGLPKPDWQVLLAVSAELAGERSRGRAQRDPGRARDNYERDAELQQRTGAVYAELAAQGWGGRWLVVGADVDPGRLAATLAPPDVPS
CNR1: Cannabinoid receptor 1 (CNR1, Homo sapiens, UniProt P21554)
Chain of UniProt P21554 (whole entry, looked up): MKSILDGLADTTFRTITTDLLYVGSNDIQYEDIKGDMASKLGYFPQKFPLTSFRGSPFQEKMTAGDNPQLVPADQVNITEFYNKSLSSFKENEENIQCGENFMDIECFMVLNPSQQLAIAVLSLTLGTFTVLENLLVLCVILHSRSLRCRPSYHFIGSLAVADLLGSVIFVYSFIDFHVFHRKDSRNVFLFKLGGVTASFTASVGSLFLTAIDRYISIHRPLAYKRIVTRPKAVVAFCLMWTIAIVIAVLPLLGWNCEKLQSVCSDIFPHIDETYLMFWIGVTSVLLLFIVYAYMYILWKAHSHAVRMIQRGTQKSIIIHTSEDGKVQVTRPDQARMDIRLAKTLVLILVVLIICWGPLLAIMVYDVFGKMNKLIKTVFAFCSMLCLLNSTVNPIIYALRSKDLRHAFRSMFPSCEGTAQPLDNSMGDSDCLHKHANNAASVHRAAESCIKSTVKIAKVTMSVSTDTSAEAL
Chain of UniProt Q8N6T7 (whole entry, looked up): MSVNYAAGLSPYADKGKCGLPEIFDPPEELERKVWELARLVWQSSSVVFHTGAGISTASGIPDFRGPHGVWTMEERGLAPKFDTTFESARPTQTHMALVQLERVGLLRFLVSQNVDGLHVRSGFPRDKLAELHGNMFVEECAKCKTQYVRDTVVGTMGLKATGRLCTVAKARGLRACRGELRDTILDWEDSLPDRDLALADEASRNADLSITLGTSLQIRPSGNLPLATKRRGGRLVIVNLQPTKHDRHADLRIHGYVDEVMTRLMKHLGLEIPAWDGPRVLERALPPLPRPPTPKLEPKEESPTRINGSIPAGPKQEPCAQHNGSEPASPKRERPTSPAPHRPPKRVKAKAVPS
Chain of UniProt Q70EK9 (whole entry, looked up): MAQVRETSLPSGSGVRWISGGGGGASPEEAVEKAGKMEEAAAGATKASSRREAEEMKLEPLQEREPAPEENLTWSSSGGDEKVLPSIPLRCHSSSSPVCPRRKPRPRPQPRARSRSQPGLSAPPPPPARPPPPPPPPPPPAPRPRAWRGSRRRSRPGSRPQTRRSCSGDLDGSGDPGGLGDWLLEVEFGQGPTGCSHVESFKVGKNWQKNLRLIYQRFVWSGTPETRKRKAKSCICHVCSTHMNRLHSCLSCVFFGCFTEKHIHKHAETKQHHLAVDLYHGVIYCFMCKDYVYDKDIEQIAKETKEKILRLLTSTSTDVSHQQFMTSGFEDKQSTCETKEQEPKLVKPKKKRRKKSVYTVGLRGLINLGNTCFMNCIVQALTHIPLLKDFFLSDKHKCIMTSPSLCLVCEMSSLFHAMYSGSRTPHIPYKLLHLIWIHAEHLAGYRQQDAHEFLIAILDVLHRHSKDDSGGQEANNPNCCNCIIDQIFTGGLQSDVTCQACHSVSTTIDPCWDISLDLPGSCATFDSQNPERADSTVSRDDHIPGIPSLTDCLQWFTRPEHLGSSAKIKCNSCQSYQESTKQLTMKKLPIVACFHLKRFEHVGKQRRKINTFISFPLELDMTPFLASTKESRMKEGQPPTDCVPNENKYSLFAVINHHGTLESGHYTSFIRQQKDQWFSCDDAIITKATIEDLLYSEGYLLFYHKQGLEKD
Chain of UniProt Q9UM73 (whole entry, looked up): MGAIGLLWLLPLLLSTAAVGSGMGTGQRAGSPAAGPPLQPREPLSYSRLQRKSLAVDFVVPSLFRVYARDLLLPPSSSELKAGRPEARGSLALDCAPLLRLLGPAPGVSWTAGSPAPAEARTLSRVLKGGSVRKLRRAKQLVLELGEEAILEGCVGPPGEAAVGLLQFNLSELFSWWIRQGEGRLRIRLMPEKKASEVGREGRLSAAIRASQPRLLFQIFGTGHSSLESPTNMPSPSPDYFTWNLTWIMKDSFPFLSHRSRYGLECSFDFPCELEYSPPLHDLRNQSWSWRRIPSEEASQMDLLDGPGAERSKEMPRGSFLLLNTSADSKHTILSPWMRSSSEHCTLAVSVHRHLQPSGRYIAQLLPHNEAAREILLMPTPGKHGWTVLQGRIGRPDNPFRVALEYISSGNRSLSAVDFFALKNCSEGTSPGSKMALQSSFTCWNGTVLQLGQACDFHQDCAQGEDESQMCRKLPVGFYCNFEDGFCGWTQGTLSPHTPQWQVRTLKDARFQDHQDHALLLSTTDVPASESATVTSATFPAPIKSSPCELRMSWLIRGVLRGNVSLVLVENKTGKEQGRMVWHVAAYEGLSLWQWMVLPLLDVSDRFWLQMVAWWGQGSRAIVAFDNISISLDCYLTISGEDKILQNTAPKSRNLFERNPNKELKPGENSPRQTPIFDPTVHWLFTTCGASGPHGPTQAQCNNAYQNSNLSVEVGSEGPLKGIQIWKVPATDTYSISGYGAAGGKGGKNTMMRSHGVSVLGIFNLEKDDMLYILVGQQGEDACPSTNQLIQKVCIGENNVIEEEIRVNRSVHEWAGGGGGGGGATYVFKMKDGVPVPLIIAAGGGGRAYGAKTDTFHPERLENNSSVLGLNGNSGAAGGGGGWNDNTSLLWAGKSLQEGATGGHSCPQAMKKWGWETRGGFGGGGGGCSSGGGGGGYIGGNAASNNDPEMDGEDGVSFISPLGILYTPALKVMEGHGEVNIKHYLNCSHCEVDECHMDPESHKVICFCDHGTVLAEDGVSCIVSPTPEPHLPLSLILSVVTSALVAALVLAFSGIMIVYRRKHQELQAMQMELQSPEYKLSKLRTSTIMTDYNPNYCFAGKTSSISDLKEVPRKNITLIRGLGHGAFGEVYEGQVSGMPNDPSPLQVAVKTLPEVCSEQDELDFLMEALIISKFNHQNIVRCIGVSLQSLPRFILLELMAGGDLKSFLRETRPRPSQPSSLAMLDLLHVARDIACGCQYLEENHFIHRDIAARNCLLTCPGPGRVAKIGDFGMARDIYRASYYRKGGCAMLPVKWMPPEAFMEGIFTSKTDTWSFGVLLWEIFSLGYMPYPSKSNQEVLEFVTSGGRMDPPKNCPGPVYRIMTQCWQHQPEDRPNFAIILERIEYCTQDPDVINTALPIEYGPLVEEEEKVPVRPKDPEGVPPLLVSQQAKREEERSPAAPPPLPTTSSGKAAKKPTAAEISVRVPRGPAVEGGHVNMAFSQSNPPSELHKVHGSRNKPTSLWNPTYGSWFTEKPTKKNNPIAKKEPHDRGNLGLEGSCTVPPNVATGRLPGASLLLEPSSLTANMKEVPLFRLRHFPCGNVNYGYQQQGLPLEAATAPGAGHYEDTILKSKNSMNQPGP
Chain of UniProt P49841 (whole entry, looked up): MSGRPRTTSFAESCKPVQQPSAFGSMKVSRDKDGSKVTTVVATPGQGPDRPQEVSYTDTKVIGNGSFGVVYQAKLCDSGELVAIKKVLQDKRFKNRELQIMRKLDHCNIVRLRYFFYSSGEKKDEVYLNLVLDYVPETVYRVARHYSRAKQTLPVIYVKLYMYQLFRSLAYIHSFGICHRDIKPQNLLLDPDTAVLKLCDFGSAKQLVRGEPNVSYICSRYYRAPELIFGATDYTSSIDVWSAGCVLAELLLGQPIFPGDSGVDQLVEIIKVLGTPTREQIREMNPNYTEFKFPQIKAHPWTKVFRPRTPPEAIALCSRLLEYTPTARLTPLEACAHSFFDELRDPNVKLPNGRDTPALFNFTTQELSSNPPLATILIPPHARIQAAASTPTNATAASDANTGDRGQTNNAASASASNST

SMILES | tested on | assay | test system | setting | measurement | value
N#Cc1ccc(C(=O)NOCc2ccc(C(F)(F)F)cc2)cc1 | NAD-dependent protein deacylase sirtuin-6 (SIRT6, Homo sapiens, UniProt Q8N6T7) | enzyme activity, inhibitor, fluorescence |  | 100 µM | inhibition | 82.5%
COc1cc(CCNC(C)c2ccccc2O)c(OC)cc1Br (stereo not shown) | Htr2a | G protein activation, agonist, BRET |  |  | Emax | 98%
C#Cc1n[nH]c2c(-c3cn([C@@H](C)c4ccccn4)c(=O)[nH]c3=O)cc(F)cc12 | ALK tyrosine kinase receptor (ALK, Homo sapiens, UniProt Q9UM73) | enzyme activity, inhibitor |  | 0.1 µM | inhibition | 10%
COc1cc(CCNC(C)c2ccccc2O)c(OC)cc1C#N (stereo not shown) | Htr2a | G protein activation, agonist, BRET |  |  | Emax | 92%
CC(N)Cc1ccc(O)cc1 (stereo not shown) | Tyrosine--tRNA ligase, cytoplasmic (YARS1, Homo sapiens, UniProt P54577) | enzyme activity, inhibitor |  | 100 µM | remaining activity | 78.4%
N.N.[Cl][Pt][Cl] | SU-DHL-2 | cell growth or viability, ATP luminescence |  | 10 µM, 72 h | inhibition | 100%
CCC(NCCc1cc(OC)c(C#N)cc1OC)c1ccccc1O (stereo not shown) | Htr2c | G protein activation, agonist, BRET |  |  | Emax | 86%
Cc1nn(C)cc1-c1nc2c(N3CCN(Cc4ccc(Cl)cc4)CC3)c(Cl)cnc2[nH]1 | Serine/threonine-protein kinase TAO2 (TAOK2, Homo sapiens, UniProt Q9UL54) | binding, competition with immobilised ligand |  | 1 µM | remaining binding | 73%
C=CCc1ccc2c(c1)OCO2 | Glycogen synthase kinase-3 beta (GSK3B, Homo sapiens, UniProt P49841) | enzyme activity, inhibitor, ADP detection |  | 100 µM | inhibition | 19.4%
Nc1c2c(nc3c1C(c1cccc([N+](=O)[O-])c1)c1ccc(OS(=O)(=O)c4ccc(F)cc4)cc1O3)CCCC2 (stereo not shown) | SH-SY5Y | cell growth or viability, MTT |  | 0.4 µM | viability | 91%
[2H]c1c([2H])c([C@]2([2H])CCCN2C(=O)C(C)(C)Oc2ccc3cn[nH]c3c2)c([2H])c([2H])c1C([2H])([2H])[2H] | Microtubule-associated serine/threonine-protein kinase 1 (MAST1, Homo sapiens, UniProt Q9Y2H9) | binding, competition with immobilised ligand |  | 1 µM | remaining binding | 76%
COC1=C[C@@H]2[C@@H]3Cc4ccc(OC)c(O)c4[C@]2(CCN3C)CC1=O | Ubiquitin carboxyl-terminal hydrolase 51 (USP51, Homo sapiens, UniProt Q70EK9) | enzyme activity, inhibitor |  | 5 µM | inhibition | 5%
CCOC(=O)C1=C(C)NC(=O)NC1c1ccc([N+](=O)[O-])o1 (stereo not shown) | tmk | enzyme activity, inhibitor, absorbance |  | 0.1 µg/mL | inhibition | 45.4%
CC[C@H](C)[C@H](NC(=O)[C@H](Cc1ccccc1)NC(=O)[C@H](CCC(=O)O)NC(=O)[C@H](CCCNC(=N)N)NC(=O)[C@H](C)NC(=O)[C@H](C)NC(=O)[C@H](CCC(N)=O)NC(=O)[C@H](CCC(=O)O)NC(=O)[C@H](CCC(=O)O)NC(=O)[C@H](CC(C)C)NC(=O)[C@H](Cc1ccc(O)cc1)NC(=O)[C@H](CO)NC(=O)[C@H](CO)NC(=O)[C@@H](NC(=O)[C@H](CC(=O)O)NC(=O)[C@H](CO)NC(=O)[C@@H](NC(=O)[C@H](Cc1ccccc1)NC(=O)[C@@H](NC(=O)CNC(=O)[C@H](CCC(=O)O)NC(=O)[C@H](C)NC(=O)CCc1c[nH]cn1)[C@@H](C)O)[C@@H](C)O)C(C)C)C(=O)N[C@@H](C)C(=O)N[C@@H](Cc1c[nH]c2ccccc12)C(=O)N[C@@H](CC(C)C)C(=O)N[C@H](C(=O)N[C@@H](CCCNC(=N)N)C(=O)NCC(=O)N[C@@H](CCCNC(=N)N)C(=O)N[C@@H](CCCCNC(=O)COCCOCCNC(=O)COCCOCCNC(=O)CC[C@H](NC(=O)CCCCCCCCCCCCCCCCC(=O)O)C(=O)O)C(=O)NCC(=O)NCC(=O)N[C@@H](CO)C(=O)N[C@@H](CCCCNc1c(NCCCCCN(O)C(=O)CCC(=O)NCCCCCN(O)C(=O)CCC(=O)NCCCCCN(O)C(C)=O)c(=O)c1=O)C(=O)O)C(C)C |  |  | rat, plasma | subcutaneous, 20 nmol/kg | half-life | 8.2 h
COC(=O)[C@@H](NC(=O)c1nn(Cc2ccc(F)cc2)c2ccccc12)C(C)C | CNR1 | β-arrestin recruitment, agonist |  |  | Emax | 103%
CCCCCOc1ccc(C(=O)c2cccc3ccccc23)c2ccccc12 | CNR1 | β-arrestin recruitment, agonist, BRET |  |  | Emax | 175%
Nc1ncc(-c2nc(N3CCOCC3)nc(N3CCOCC3)n2)c(C(F)F)n1 | Serine/threonine-protein kinase WNK3 (WNK3, Homo sapiens, UniProt Q9BYP7) | binding, competition with immobilised ligand |  | 10 µM | remaining binding | 56%
COC(=O)[C@@H](NC(=O)c1nn(Cc2ccc(F)cc2)c2ccccc12)C(C)(C)C | CNR1 | β-arrestin recruitment, agonist, BRET |  |  | Emax | 178%
CC1=C(C(N)=O)C(c2ccc([N+](=O)[O-])o2)NC(=O)N1 (stereo not shown) | tmk | enzyme activity, inhibitor, absorbance |  | 0.1 µg/mL | inhibition | 54.7%
C=CC(=O)N1CCC(COCC(=O)N2CCN(c3nc(-c4cnc(N)nc4C(F)F)nc(N4CCOC[C@@H]4C)n3)CC2)CC1 | Serine/threonine-protein kinase PknB (pknB, Mycobacterium tuberculosis, UniProt P9WI81) | binding, competition with immobilised ligand |  | 1 µM | remaining binding | 91%
COc1cc(CCN)c(OC)cc1C#N | Htr2c | G protein activation, agonist, BRET |  |  | Emax | 91%
CCOC(=O)C1=C(C)NC(=NN=c2[nH]c3ccccc3[nH]c2=O)NC1c1ccc(F)cc1 (stereo not shown) | tmk | enzyme activity, inhibitor, absorbance |  | 0.01 µg/mL | inhibition | 35.3%
COc1ncccc1-c1cnn2ccc(N3CCN(C(=O)OC(C)C)CC3)nc12 | TRAF2 and NCK-interacting protein kinase (TNIK, Homo sapiens, UniProt Q9UKE5) | binding, competition with immobilised ligand |  | 1 µM | remaining binding | 83%
CC1=C(C(N)=O)C(c2ccc([N+](=O)[O-])o2)NC(=S)N1 (stereo not shown) | tmk | enzyme activity, inhibitor, absorbance |  | 10 µg/mL | inhibition | 87.5%
CN[C@@]1(c2ccccc2Cl)CCCCC1=O | Mitogen-activated protein kinase 1 (MAPK1, Homo sapiens, UniProt P28482) | enzyme activity, inhibitor |  | 30 µM | inhibition | 2%

For quick reference, copied from above:
SMILES | tested on | assay | test system | setting | measurement | value
CCC(NCCc1cc(OC)c(C#N)cc1OC)c1ccccc1O (stereo not shown) | Htr2c | G protein activation, agonist, BRET |  |  | Emax | 86%
